Experimental data gathered from unrelated publications.
± marks the error that the study gave.

Structure (SMILES) | cell line | assay | conditions | how to read | endpoint | result
O=C(/C=C/C=C/C=C/C1CCCCC1)NC1=C[C@@](O)(/C=C/C=C/C=C/C(=O)NC2=C(O)CCC2=O)[C@@H]2O[C@@H]2C1=O | NCI-H1975 | cell growth, CellTiter-Glo | 78 h |  | GI50 | 18500 nM
CN(C)Cc1c(C(=O)NCCOc2ccc(C(=O)NO)cc2)oc2ccccc12 | HEK293T ATF4-FLuc reporter | ATF4 reporter gene, activator, luciferase reporter |  |  | EC50 | 380 nM
C[C@H](NCc1ccc(OCc2cccc(F)c2)cc1)C(N)=O | THP-1 | pyroptotic LDH release | 2 µM, 40 min, added: LPS then nigericin |  | inhibition | -29.2%
CCn1cc(-c2cc(Cn3ccoc3=N)cc3c2CCN([C@@H](C)c2cc(OC)ccn2)C3=O)c(C(F)(F)F)n1 | HCC38 | cell growth, inhibitor | 120 h |  | EC50 | 54.1 nM
Cc1nc2cnccc2n1-c1ccc(OCc2cccc(/C=C/c3nc4cc(F)ccc4s3)c2)cc1 | HEK293T ATF4-FLuc reporter | ATF4 reporter gene, activator, luciferase reporter |  |  | EC50 | > 9960 nM
CC(C)Oc1ccc(C(=O)N[C@H](CNC(=O)CN(C)C)Cc2ccc(-c3cn4cccc([C@H](C)O)c4n3)cc2)cc1Cl | THP-1 | pyroptotic LDH release | 2 µM, 40 min, added: LPS then nigericin |  | inhibition | 15.8%
Nc1cc2c3ccccc3ccc2c2ccccc12 | HEK293T ATF4-FLuc reporter | ATF4 reporter gene, activator, luciferase reporter |  |  | EC50 | 4070 nM
C[C@@H](O)CC(=O)O | THP-1 | pyroptotic LDH release | 2 µM, 40 min, added: LPS then nigericin |  | inhibition | -6.74%
CC(C)C[C@H](NC(=O)CNC(=O)c1cc(Cl)ccc1Cl)B1OC(=O)C(CC(=O)O)(CC(=O)O)O1 | HEK293T ATF4-FLuc reporter | ATF4 reporter gene, activator, luciferase reporter |  |  | EC50 | 161 nM
CC1(C)CCC(C)(C)c2cc(NC(=O)c3ccc(C(=O)O)cc3)ccc21 | THP-1 | pyroptotic LDH release | 2 µM, 40 min, added: LPS then nigericin |  | inhibition | 52%
COc1c(O)cc2c(c1O)C(=O)c1c(cc(C)c(O)c1OC)C2=O | HK-2 co-cultured with HepaRG | MTT | 16.67 µM, 24 h | baseline: untreated control | viability | 99.7 ± 12.1%
Cn1cncc1[C@@](N)(c1ccc(Cl)cc1)c1ccc2c(c1)c(-c1cccc(Cl)c1)cc(=O)n2C | HEK293T ATF4-FLuc reporter | ATF4 reporter gene, activator, luciferase reporter |  |  | EC50 | 7380 nM
O=C(O)c1ccccc1Cl | THP-1 | pyroptotic LDH release | 2 µM, 40 min, added: LPS then nigericin |  | inhibition | 44.8%
COc1cnc2cccc(N3CCc4c(cc(Cn5ccnc5C)cc4-c4cn(C)nc4C(F)(F)F)C3=O)c2c1 | NOMO-1 | cell growth, inhibitor | 120 h |  | EC50 | 604 nM
COc1cc2c(c(OC)c1OC)C(=O)c1c(cc(C)c(O)c1OC)C2=O | HK-2 co-cultured with HepaRG | MTT | 16.67 µM, 24 h | baseline: untreated control | viability | 81.2 ± 5.09%
CCn1cc(-c2cc(Cn3ccnc3)cc3c2CCN([C@H](c2cc(OC)ccn2)C2CC2)C3=O)c(C(F)(F)F)n1 | NCI-H322 | cell growth, inhibitor | 120 h |  | EC50 | > 30000 nM
Cn1cc(-c2ccc(-c3cncc(Cl)c3N3CCC4(CCNC4=O)CC3)cc2)cn1 | COLO 205 | gene expression, microarray, measured: NLRP1 mRNA | concentration not given, 2 h | baseline: untreated cells | log2 fold change | 2.72

Some of these lines once more:
Structure (SMILES) | cell line | assay | conditions | how to read | endpoint | result
Cn1cncc1[C@@](N)(c1ccc(Cl)cc1)c1ccc2c(c1)c(-c1cccc(Cl)c1)cc(=O)n2C | HEK293T ATF4-FLuc reporter | ATF4 reporter gene, activator, luciferase reporter |  |  | EC50 | 7380 nM
Cn1cc(-c2ccc(-c3cncc(Cl)c3N3CCC4(CCNC4=O)CC3)cc2)cn1 | COLO 205 | gene expression, microarray, measured: NLRP1 mRNA | concentration not given, 2 h | baseline: untreated cells | log2 fold change | 2.72
